Measurements pooled from the literature.
A part holds a random share of what one study measured. Changes are numbered by the printed parent chain.

Series 1
Target: Prothrombin, mature alpha-thrombin (F2, Homo sapiens, UniProt P00734)
Method: aptamer microarray, sandwich
Form: DNA with 2'F-ANA
Sample: in vitro
Concentration: 200 nM
Setting: whole 15-mer aptamer, many near background
Added: Cy3 exosite-II aptamer, 400 nM
Direction: higher = stronger binding
Sequence: GGTTGGTGTGGTTGG
Modification	mean fluorescence intensity [a.u.]
2'F-ANA at 1 4 5 8 9 11 14 15	50.1
2'F-ANA at 1 4 6 7 8 10 13	49.8
2'F-ANA at 1 9 10 11 14 15	50.5
2'F-ANA at 1 2 3 4 8 12 15	493
2'F-ANA at 2 4 5 9 10 12 14 15	45.7
2'F-ANA at 1 2 7 8 11 12 13 15	261
2'F-ANA at 1 7 8 9 11 12 13 15	291
2'F-ANA at 4 7 8 9 10 11 14 15	276
2'F-ANA at 3 6 7 8 10 13 15	506
2'F-ANA at 8 9 10 11 13 14	101
2'F-ANA at 2 4 5 6 9 15	70.5
2'F-ANA at 1 2 4 5 6 7 9 12 14 15	54.4
2'F-ANA at 1 2 3 4 5 9 10 13	46.9
2'F-ANA at 2 3 5 8 10 12 13 15	56.9
2'F-ANA at 2 3 4 7 13 14	387
2'F-ANA at 1 5 10 11 13 15	47.1
2'F-ANA at 1 4 6 10 15	50.5
2'F-ANA at 1 2 3 4 5 8 9 15	67.8
2'F-ANA at 2 4 8 9 10 11 12	157
2'F-ANA at 1 7 8 9 10 11 12 14	49.8

Series 2
Target: CCNE2, cyclin fold, Cln2 fusion (human)
Method: yeast growth competition, sequencing
Sample: yeast
Setting: strong parent motif
Baseline: not given
Direction: higher = stronger binding
Starting sequence: DTL docking peptide (human); PSSMRKICTYFHR; partner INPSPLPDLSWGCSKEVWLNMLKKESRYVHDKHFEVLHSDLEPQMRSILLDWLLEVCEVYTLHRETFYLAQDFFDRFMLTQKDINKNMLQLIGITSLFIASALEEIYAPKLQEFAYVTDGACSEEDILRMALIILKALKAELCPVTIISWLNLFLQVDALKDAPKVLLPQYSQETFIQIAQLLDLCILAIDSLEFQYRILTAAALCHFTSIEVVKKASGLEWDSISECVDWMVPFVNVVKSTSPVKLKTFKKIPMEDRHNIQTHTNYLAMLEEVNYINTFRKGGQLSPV
Change	normalised enrichment score
T9A	0.963
K6A	1.12
H12A	1.12
S3A	1.23
P1A	0.579
S2A	0.844

Series 3
Target: Protein max, full length (MAX, Homo sapiens, UniProt P61244-2, residues 1-151)
Method: protein-binding microarray
Form: double-stranded DNA, one strand shown
Sample: in vitro
Concentration: not given
Setting: k-mer, scored over probes, only values ≥0.25
Direction: higher = stronger binding
Sequence	E-score
ATGAGGTC	0.28
CATGCTAC	0.4
CGTTCTCC	0.281
CACGCATG	0.437
ACCCGTGA	0.257
ATAGCACG	0.387
CCGCATGA	0.412
AACCCATG	0.307
GCACACGC	0.427
TGCGAAAA	0.274
CATGGTTA	0.293
GCCACACC	0.298
GGCCATGA	0.275
CGTCACAC	0.27

Series 4
Target: Histone acetyltransferase KAT6A, both winged helices, GST fusion (KAT6A, Homo sapiens, UniProt Q92794, residues 1-181)
Method: protein binding microarray
Form: double-stranded DNA, one strand shown
Sample: in vitro
Concentration: not given
Setting: 8-mer, flanks averaged, mean of 2 arrays, mostly near background
Baseline: not given
Direction: higher = stronger binding
Target sequence (chain): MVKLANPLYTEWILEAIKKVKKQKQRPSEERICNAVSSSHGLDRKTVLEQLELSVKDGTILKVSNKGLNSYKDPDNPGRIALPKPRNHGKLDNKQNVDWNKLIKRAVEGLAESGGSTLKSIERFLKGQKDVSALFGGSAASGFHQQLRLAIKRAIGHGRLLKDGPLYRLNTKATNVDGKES
Sequence	E-score
CTTCCTAC	-0.162
AGTGGTCC	-0.112
ACGTTCCC	0.0986
AACTAGGA	-0.117
ATTCATTC	-0.0614
CGGAGAGC	0.139
CAGCTCGC	-0.0549
TCTCTCAA	-0.128
AGCATACT	-0.044
TATGTTAA	-0.0277
ACCGTACT	0.144
AATGCTCG	-0.106
ATATGCGC	0.201
ATAACTAT	-0.117
GGTATTAA	0.0185
TACGGCCA	0.127
CCTGATAG	-0.2
AGTTTTTG	-0.0982
AATGGAAG	-0.0115
CCGCCAAA	0.209
CAAAGGAG	-0.221
AAATCAGA	-0.0943
GTATAAAA	0.186
TACAGTAA	-0.153

Excerpt of the above (series 1):
Modification	mean fluorescence intensity [a.u.]
2'F-ANA at 1 9 10 11 14 15	50.5
2'F-ANA at 1 2 3 4 8 12 15	493
2'F-ANA at 2 4 5 9 10 12 14 15	45.7
2'F-ANA at 1 2 7 8 11 12 13 15	261
2'F-ANA at 1 7 8 9 11 12 13 15	291
2'F-ANA at 4 7 8 9 10 11 14 15	276
2'F-ANA at 3 6 7 8 10 13 15	506
2'F-ANA at 8 9 10 11 13 14	101
2'F-ANA at 2 4 5 6 9 15	70.5
2'F-ANA at 1 2 4 5 6 7 9 12 14 15	54.4
